Measurements of several laboratories.
Compare with care: the assays were run in different laboratories. “And” joins repeats or separate records; there may be more than shown. ± gives the spread as reported.

Compound = N#C[C@@H]1CC(F)(F)CN1C(=O)CNC(=O)c1ccnc2c(NC(=O)[C@H](CCCCNC(=O)CCOCCOCCOCCOCCOCCOCCNC(=O)CN3CCN(CC(=O)[O-])CCN(CC(=O)[O-])CCN(CC(=O)[O-])CC3)NC(=O)CCCc3ccc(I)cc3)cccc12.[177Lu+3]; system = mouse, U-87 MG tumour xenograft, salivary gland; setting = 96 h; tissue uptake = 0.36 ± 0.1 %ID/g
Compound = COc1cccc(OC)c1-c1cc(C(=O)NC2(C(=O)O)C3CC4CC(C3)CC2C4)nn1-c1ccc(C(=O)N(C)CCCN(C)CCCN(C)C(=O)[C@H](CCCCNC(=O)[C@H](CC(C)C)NC(=O)C2OC2C(=O)O)NC(=O)CN2CCN(CC(=O)[O-])CCN(CC(=O)[O-])CCN(CC(=O)[O-])CC2)cc1C(C)C.[177Lu+3] (mixture of isomers); system = mouse, HT-29 xenograft, liver; setting = 4 h post injection; tissue uptake = 2.6 %ID/g
Compound = [11CH3]N1CCC(NC(=O)c2cc(-c3c(O)cc(O)cc3Oc3ccc([N+](=O)[O-])cc3)on2)CC1; system = NMRI mouse, healthy, kidneys; setting = intravenous, 5.5 MBq, 10 min; tissue uptake = 7.8 ± 1.1 %ID
Compound = CC[C@H](C)[C@H](NC(=O)C[C@H](NC(=O)CN1CCN2CCN(CC1)CC(=O)[O][Al]([18F])[O]C(=O)C2)C(=O)O)C(=O)N[C@H]1CCc2cccc3c2N(C1=O)[C@H](C(=O)NCc1cn[nH]n1)C3; system = C57BL/6J mouse, MC-38 tumour, bone; setting = 30 min post injection, PBS treated; tissue uptake = 0.58 ± 0.15 %ID/g
Compound = O=C([O-])CN1CCN(CC(=O)[O-])CCN(Cc2cccc(C(=O)[O-])n2)CC1.[177Lu+3]; system = BALB/c mouse, small intestine; setting = intravenous, 1 h; tissue uptake = 0.49 ± 0.3 %ID/g
Compound = COc1ccc(Nc2nc(Nc3ccc(OCCOCC[18F])cc3)ncc2Br)cc1; system = ICR mouse, S180 sarcoma-bearing, blood; setting = intravenous, 370 kBq in 100 µL, 30 min; tissue uptake = 3.08 ± 0.26 %ID/g
Compound = CN(Cc1ccccc1)C(=O)CN1CCN(CC(=O)[O-])CCN(Cc2cccc(C(=O)[O-])n2)CC1.[177Lu+3]; system = BALB/c mouse, large intestine; setting = intravenous, 1 h; tissue uptake = 0.22 ± 0.03 %ID/g
Compound = O=C(O)CCCOc1ccc([18F])cc1-c1cc(-c2ccccc2C(F)(F)F)n(-c2ccccc2)n1; system = mouse, bladder; setting = intravenous, dose not given, 180 min; tissue uptake = 0.1 ± 0.14 %ID/g
Compound = O=C([O-])CN1CCN(CC(=O)[O-])CCN(CC(=O)NCC2CCC(C(=O)NC(Cc3ccc4ccccc4c3)C(=O)NCCCCC(NC(=O)NC(CCC(=O)O)C(=O)O)C(=O)O)CC2)CCN(CC(=O)[O-])CC1.[68Ga+3] (stereo not shown); system = mouse 22Rv1 xenograft, kidney; setting = 4 h; tissue uptake = 1.13 ± 0.74 %ID/g
Compound = CN(Cc1ccccc1)C(=O)CN1CCN(CC(=O)[O-])CCN(CC(=O)N(C)Cc2ccccc2)CC1.[18F-].[Sc+3]; system = BALB/c mouse, small intestine; setting = intravenous, 1 h; tissue uptake = 15.9 ± 7.2 %ID/g
Compound = COc1ccc(Nc2nc(Nc3ccc(OCCOCCOCC[18F])cc3)ncc2Br)cc1; system = ICR mouse, S180 sarcoma-bearing, blood; setting = intravenous, 370 kBq in 100 µL, 15 min; tissue uptake = 4.19 ± 0.33 %ID/g
Compound = COc1ccc2c(c1)C(C)(C)C(/C=C/C1=C(Oc3ccc(C(=O)NCCCCOc4cc(CN(Cc5ccccn5)Cc5ccccn5)cc(CN(Cc5ccccn5)Cc5ccccn5)c4)cc3)C(=C/C=C3/N(CCCCS(=O)(=O)[O-])c4ccc(OC)cc4C3(C)C)CCC1)=[N+]2CCCCS(=O)(=O)[O-].O=[N+]([O-])[O-].O=[N+]([O-])[O-].[99Tc+].[C-]#[O+].[C-]#[O+].[C-]#[O+].[Zn+2]; system = BALB/c mouse, Staphylococcus aureus myositis, liver; setting = 12 h; tissue uptake = 6.88 %ID/g and 20.1 %ID/g and 30.5 %ID/g and 26.8 %ID/g
Compound = CN(Cc1ccccc1)C(=O)CN1CCN(CC(=O)[O-])CCN(CC(=O)[O-])CC1.[18F-].[Sc+3]; system = BALB/c mouse, small intestine; setting = intravenous, 1 h; tissue uptake = 7.09 ± 5.9 %ID/g

Repeated from above:
Compound = O=C([O-])CN1CCN(CC(=O)[O-])CCN(Cc2cccc(C(=O)[O-])n2)CC1.[177Lu+3]; system = BALB/c mouse, small intestine; setting = intravenous, 1 h; tissue uptake = 0.49 ± 0.3 %ID/g
